Results collected from several papers.
A part holds a random share of what one study measured. “And” joins repeats or separate records; there may be more than shown.
UniProt P57058, sequence (whole entry, looked up): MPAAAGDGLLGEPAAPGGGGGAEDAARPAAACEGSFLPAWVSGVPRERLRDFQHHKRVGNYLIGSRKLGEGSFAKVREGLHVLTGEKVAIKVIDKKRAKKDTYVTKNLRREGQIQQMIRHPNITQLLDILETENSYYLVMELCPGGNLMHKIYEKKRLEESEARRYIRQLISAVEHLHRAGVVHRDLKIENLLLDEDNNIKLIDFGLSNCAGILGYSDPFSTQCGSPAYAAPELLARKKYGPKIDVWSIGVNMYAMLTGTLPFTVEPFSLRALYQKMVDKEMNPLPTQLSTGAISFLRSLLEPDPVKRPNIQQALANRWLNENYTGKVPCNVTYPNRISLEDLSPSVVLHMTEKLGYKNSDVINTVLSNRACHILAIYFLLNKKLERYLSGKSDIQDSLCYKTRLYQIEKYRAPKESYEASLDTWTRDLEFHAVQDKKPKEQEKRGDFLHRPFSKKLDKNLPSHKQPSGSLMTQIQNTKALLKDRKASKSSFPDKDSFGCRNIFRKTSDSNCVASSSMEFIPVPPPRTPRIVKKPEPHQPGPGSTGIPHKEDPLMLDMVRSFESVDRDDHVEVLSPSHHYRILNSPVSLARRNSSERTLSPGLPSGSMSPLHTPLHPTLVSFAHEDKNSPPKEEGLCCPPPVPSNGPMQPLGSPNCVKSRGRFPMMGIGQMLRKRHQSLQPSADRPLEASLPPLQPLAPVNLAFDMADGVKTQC
UniProt Q9Y2K2, sequence (whole entry, looked up): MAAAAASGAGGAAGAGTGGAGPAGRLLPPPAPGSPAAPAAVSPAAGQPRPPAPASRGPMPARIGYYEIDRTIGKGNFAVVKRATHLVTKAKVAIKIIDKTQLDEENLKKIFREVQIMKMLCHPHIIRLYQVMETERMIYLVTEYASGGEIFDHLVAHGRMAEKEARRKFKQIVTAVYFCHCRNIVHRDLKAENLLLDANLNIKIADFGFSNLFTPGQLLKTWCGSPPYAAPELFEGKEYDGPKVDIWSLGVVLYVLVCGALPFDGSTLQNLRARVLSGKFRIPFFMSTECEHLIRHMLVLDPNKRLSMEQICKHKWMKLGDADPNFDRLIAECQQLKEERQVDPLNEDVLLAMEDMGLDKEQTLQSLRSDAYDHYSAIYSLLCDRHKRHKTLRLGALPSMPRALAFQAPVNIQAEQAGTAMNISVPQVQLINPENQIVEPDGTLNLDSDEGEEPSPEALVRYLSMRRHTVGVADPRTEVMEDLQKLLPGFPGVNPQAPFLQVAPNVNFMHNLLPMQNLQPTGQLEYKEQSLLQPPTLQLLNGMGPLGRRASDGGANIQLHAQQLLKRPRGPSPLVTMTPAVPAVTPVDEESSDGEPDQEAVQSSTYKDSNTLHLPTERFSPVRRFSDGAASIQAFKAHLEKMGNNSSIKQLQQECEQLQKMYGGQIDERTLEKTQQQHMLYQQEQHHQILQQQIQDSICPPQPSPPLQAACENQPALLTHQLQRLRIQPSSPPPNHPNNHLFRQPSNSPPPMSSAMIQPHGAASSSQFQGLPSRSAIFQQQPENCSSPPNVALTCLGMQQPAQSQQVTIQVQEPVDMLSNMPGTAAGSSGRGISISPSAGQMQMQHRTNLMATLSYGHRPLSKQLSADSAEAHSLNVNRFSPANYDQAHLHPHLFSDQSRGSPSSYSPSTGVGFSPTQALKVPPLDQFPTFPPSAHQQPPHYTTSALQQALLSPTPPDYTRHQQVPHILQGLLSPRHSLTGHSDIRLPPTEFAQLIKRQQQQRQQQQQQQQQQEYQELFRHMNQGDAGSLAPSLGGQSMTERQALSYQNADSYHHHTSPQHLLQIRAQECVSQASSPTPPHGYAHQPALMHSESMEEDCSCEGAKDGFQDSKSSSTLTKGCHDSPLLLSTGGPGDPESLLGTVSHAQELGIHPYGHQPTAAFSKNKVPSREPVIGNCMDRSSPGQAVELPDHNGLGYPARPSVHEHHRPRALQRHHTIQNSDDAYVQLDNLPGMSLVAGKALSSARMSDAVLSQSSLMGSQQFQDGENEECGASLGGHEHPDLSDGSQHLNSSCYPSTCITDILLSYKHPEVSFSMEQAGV
UniProt Q16816, sequence (whole entry, looked up): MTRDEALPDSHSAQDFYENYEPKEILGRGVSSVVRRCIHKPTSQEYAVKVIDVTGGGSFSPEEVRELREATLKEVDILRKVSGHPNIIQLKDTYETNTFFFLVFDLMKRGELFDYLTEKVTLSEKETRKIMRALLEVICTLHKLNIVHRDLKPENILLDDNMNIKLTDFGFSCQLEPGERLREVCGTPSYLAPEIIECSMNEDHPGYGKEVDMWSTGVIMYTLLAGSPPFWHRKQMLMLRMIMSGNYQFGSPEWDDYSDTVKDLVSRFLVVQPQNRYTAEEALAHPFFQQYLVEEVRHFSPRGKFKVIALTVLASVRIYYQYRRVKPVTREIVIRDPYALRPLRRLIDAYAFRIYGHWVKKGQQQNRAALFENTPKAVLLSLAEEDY

Set 1
Structure (SMILES): CC[C@@H](C)c1nc2cc(Nc3ccnc4ccc(S(=O)(=O)C(C)C)cc34)ccc2s1.Cl
cell line | assay | conditions | viability
L929 | CCK-8 | 3.125 µM, together with: zVAD | 105% and 101% and 107% and 103%
L929 RIPK3 knockout | – | 6.25 µM, together with: zVAD | 96.5% and 97.4% and 104% and 106% and 108%
HT-29 | necroptosis protection, CCK-8 | 0.625 µM, together with: TNF-α SMAC mimetic zVAD | 37.8% and 29% and 19.4% and 19.1% and 25.1%
L929 RIPK3 knockout | – | 50 µM, together with: zVAD | 55.5% and 58.7% and 58.3% and 37.5% and 36.1%
L929 RIPK3 knockout | – | 6.25 µM | 94.8% and 106% and 109% and 96%
L929 RIPK3 knockout | – | 0.781 µM, together with: zVAD | 102% and 105% and 98.7%
L929 RIPK3 knockout | – | 0.781 µM | 99% and 101% and 97.2% and 98.1%
HT-29 | necroptosis protection, CCK-8 | 0.156 µM, together with: TNF-α SMAC mimetic zVAD | 19.8% and 12.8% and 19.3% and 13.1%
L929 | CCK-8 | 50 µM | 34.7% and 34.2% and 46% and 34.8% and 34.1%
L929 | CCK-8 | 100 µM, together with: zVAD | 38% and 39% and 39.1% and 41.5% and 41.9%
L929 | CCK-8 | 1.563 µM, together with: zVAD | 99.1% and 97.8% and 95.1% and 96.8% and 94%
L929 | CCK-8 | 50 µM, together with: zVAD | 43.1% and 34.5% and 35% and 33.9%

Set 2
Compound: Cn1cncc1[C@](O)(COc1ccc(C#N)cc1-c1ccc(OC(F)(F)F)cc1)c1ccc(C#N)cc1
Read-out: cell-free assay
Method: competition with immobilised ligand
Tested at: 1 µM
target | remaining binding
Tyrosine-protein kinase ABL1, non-phosphorylated (ABL1, Homo sapiens, UniProt P00519, Q252H) | 96%
FLT3 (Homo sapiens, UniProt P36888, ITD) | 100%
SIK3 (Homo sapiens, UniProt Q9Y2K2) | 67%
PHKG1 (Homo sapiens, UniProt Q16816) | 63%
HUNK (Homo sapiens, UniProt P57058) | 68%

Set 3
Target: Dual specificity tyrosine-phosphorylation-regulated kinase 1B (DYRK1B, Homo sapiens, UniProt Q9Y463)
Read-out: enzyme activity
Action: inhibitor
Method: radiometric
Tested at: 0.5 µM
Structure (SMILES) | remaining activity
COc1cc2ncnc(Nc3ccc(Oc4ccccc4)cc3)c2cc1OC | 97%
COc1cc2nccc(Oc3ccc(NC(=S)NC(=O)c4ccccc4C)cc3)c2cc1OC | 110%
C#Cc1cccc(Nc2ncnc3cc(OCCOC)c(OCCOC)cc23)c1 | 93.7%
Cc1ccc(NC(=O)c2ccc(CN3CCN(C)CC3)cc2)cc1Nc1nc(-c2cccnc2)cs1 | 95.7%
NCCNc1ncc(C(N)=O)c(Nc2cccc(C(F)(F)F)c2)n1 | 85.9%
O=C1NC(=O)C(c2cn(CCCO)c3ncccc23)=C1c1cnccn1 | 93.2%

Mixed results
Target: Calcium/calmodulin-dependent protein kinase type II subunit alpha (CAMK2A, Homo sapiens, UniProt Q9UQM7)
UniProt Q9UQM7, sequence (whole entry, looked up): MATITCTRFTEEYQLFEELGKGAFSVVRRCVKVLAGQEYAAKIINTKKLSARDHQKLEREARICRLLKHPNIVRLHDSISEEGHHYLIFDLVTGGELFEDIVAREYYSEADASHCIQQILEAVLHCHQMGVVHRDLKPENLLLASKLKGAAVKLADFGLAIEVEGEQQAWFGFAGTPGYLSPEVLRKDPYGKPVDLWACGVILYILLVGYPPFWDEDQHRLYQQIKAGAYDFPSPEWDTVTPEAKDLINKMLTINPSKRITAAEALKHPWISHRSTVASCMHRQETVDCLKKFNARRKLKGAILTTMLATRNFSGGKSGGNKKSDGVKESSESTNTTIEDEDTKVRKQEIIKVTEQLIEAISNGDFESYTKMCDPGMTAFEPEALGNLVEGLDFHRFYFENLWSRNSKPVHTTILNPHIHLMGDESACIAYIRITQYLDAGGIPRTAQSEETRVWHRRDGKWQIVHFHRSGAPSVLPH
Read-out: enzyme activity
Action: inhibitor
Tested at: 10 µM
SMILES | inhibition [%]
CC1=NCCc2c1[nH]c1cc(O)ccc21 | -7
Oc1ccc(CCc2cc(O)cc(O)c2)cc1 | 4

Excerpt of the above (set 2):
target | remaining binding
SIK3 (Homo sapiens, UniProt Q9Y2K2) | 67%
PHKG1 (Homo sapiens, UniProt Q16816) | 63%
HUNK (Homo sapiens, UniProt P57058) | 68%
